Experimental data of several laboratories.
Values joined by “and” are separate records of one study, mostly repeats; a detail may differ. ± marks the error that the study gave. Values after ≈ are worked out from the molar mass of the structure shown.
Sequence of UniProt P35916 (whole entry, looked up): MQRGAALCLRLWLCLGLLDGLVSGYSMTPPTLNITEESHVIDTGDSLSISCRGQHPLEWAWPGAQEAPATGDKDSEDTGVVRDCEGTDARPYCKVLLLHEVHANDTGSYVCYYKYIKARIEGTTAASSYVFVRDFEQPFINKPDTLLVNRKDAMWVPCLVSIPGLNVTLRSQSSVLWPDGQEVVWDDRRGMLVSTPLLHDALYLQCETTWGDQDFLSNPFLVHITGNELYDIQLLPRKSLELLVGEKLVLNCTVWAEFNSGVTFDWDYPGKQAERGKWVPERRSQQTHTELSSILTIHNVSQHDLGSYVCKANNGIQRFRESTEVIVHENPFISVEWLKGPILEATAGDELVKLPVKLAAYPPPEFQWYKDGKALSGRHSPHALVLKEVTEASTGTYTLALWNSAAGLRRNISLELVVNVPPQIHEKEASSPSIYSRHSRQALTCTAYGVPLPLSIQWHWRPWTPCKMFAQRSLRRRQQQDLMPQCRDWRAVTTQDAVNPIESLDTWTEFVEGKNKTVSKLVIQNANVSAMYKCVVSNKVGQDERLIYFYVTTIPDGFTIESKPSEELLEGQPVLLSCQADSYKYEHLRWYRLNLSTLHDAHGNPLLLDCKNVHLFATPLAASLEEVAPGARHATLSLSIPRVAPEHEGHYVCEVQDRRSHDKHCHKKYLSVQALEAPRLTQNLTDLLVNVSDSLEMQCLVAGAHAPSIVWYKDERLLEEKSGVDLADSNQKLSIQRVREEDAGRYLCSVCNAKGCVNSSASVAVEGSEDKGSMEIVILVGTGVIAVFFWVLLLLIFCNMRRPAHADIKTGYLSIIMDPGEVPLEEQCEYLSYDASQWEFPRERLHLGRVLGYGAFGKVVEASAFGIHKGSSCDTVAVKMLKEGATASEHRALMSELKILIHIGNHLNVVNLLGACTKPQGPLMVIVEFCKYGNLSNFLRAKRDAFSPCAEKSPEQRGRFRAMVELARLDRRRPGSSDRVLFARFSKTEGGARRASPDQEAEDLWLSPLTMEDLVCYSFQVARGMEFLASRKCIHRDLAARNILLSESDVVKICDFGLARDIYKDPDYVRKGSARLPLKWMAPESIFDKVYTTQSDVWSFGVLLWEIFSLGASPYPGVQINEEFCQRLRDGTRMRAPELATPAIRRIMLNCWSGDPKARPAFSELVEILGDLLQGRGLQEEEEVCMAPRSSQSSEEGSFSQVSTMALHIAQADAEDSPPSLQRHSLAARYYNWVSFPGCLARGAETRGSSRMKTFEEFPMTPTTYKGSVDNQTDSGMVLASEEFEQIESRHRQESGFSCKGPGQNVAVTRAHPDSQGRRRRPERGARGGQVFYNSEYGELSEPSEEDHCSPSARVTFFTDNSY
Sequence of UniProt P30874 (whole entry, looked up): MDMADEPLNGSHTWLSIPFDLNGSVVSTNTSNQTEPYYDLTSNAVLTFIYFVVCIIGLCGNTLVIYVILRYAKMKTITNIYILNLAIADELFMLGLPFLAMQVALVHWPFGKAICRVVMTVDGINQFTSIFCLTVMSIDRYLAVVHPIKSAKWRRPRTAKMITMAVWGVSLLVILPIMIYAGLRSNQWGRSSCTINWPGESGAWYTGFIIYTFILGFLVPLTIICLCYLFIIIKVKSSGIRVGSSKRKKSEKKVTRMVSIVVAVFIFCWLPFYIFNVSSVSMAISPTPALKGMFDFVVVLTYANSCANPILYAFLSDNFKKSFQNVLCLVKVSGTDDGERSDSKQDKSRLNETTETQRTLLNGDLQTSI
Sequence of UniProt P07197 (whole entry, looked up): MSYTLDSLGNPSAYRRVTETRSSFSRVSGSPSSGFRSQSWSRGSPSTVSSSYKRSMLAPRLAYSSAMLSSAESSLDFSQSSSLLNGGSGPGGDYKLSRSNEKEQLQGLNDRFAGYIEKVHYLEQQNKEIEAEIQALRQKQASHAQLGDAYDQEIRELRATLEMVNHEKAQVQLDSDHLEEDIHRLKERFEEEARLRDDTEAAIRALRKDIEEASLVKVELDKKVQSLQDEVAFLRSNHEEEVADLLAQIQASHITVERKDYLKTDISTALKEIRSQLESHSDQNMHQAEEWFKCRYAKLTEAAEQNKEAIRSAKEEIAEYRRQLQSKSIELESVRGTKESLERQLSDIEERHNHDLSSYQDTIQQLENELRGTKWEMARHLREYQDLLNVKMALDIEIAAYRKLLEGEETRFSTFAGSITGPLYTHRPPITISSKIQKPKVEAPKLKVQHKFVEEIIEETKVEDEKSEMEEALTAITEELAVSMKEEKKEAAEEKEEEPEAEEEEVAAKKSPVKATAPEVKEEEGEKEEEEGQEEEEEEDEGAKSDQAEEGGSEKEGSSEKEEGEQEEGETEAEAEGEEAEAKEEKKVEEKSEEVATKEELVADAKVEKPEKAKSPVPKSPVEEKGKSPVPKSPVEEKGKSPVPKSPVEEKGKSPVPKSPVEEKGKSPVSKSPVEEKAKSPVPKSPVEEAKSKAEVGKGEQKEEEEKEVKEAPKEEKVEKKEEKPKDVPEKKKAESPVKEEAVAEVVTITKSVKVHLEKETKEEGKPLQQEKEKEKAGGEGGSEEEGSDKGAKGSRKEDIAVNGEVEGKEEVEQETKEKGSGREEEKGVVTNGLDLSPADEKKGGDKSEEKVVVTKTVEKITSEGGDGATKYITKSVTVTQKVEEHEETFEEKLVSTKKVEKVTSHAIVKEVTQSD

`O=C(O)C[C@H](NC(=O)[C@H](CC(=O)O)NC(=O)[C@H](CC(=O)O)NC(=O)[C@H](CC(=O)O)NC(=O)[C@H](CC(=O)O)NC(=O)[C@H](CC(=O)O)NC(=O)[C@H](CC(=O)O)NC(=O)[C@H](CC(=O)O)NC(=O)[C@H](CC(=O)O)NC(=O)[C@H](CC(=O)O)NC(=O)[C@H](CC(=O)O)NC(=O)[C@H](CCCCNC(=O)c1ccc(C(=O)NCCOCCOB2BBBBBB3BBBB3B2)cc1)NC(=O)CN1CCN(CC(=O)O)CCN(CC(=O)O)CCN(CC(=O)O)CC1)C(=O)O` [gallium-67 labelled] has a tissue uptake of 7.13 %ID/g (gamma counting; mouse, ddY, male, 6 weeks old, femur; intravenous, 37 kBq, 3 h).
For `COc1cc2c(Oc3ccc4[nH]c(C)cc4c3F)ccnc2cc1OCC1(N)CC1`, “grade 1 or 2 Hypothyroidism” read 25% (paediatric recurrent refractory sarcoma; 8 mg).
`CO[C@H]1C[C@@H]2CC[C@@H](C)[C@@](O)(O2)C(=O)C(=O)N2CCCC[C@H]2C(=O)O[C@H]([C@H](C)C[C@@H]2CC[C@@H](OC(=O)NCCOCCOCCOCCOCCOCCOCCOCCOCCC(=O)N3CCc4cc(Cn5nc(-c6ccc7oc(N)nc7c6)c6c(N)ncnc65)ccc4C3)[C@H](OC)C2)C[C@@H](O)[C@H](C)/C=C(\C)[C@@H](O)[C@@H](OC)C(=O)[C@H](C)C[C@H](C)/C=C/C=C/C=C/1C`: “incidence of Vomiting TEAE” 0% (patients with advanced solid tumours; intravenous, 1.6 mg/3 mg weekly, grade ≥3).
For `C1=Cc2nc1cc1ccc([n-]1)c(C1CC1)c1nc(cc3ccc([n-]3)c2C2CC2)C=C1.CC(=O)[O-].[Mn+3]`, the plasma concentration was 424 ng/mL and 317 ng/mL (LC-MS/MS; Sprague-Dawley rat, plasma; oral gavage, dose not given, 60 min).
`CC[C@H](C)[C@@H]1NC(=O)[C@@H]2CCCN2C(=O)[C@H](CC(C)C)NC(=O)[C@H](CC(C)C)NC(=O)CNC(=O)[C@@H](NC(=O)[C@@H](NC(=O)[C@H](CC(=O)O)NC(=O)CNC(=O)[C@@H](NC(=O)[C@H](C)NC(=O)CNC(=O)[C@H](CCCCN)NC(=O)[C@H](CC(C)C)NC(=O)[C@H](CC(C)C)NC(=O)[C@H](CCCCN)NC(=O)CNC(=O)[C@@H](NC(=O)[C@@H](N)CC(C)C)C(C)C)C(C)C)C(C)C)CSSC[C@@H](C(=O)O)NC1=O`: “log2 fold change” -1.67 (RNA-seq, item: novel.181 mRNA; mouse traumatic brain injury, frontal cortex and hippocampus; dose not given; relative to: TBI plus compound vs TBI).
`Clc1ccc(-c2ccccc2)cc1` gave a creatinine of 0.3 ± 0.05 mg/dL (Sprague-Dawley rats, female, serum; inhalation, 23 µg/rat, 0 h after exposure).
With `COc1ccc(N2C(=O)N(c3c(C)cccc3Cl)Cc3cnc(Nc4ccc(C5CCN(C)CC5)cc4OC)nc32)nc1` the inhibition was 45% (FLT4 (Homo sapiens, UniProt P35916); kinase activity; 0.5 µM).
For `CC[C@H](C)CCCCC(=O)N[C@@H](CCN)C(=O)N[C@H](C(=O)N[C@@H](CCN)C(=O)N[C@H]1CCNC(=O)[C@H]([C@@H](C)O)NC(=O)[C@H](CCN)NC(=O)[C@H](CCN)NC(=O)[C@H](CC(C)C)NC(=O)[C@@H](Cc2ccccc2)NC(=O)[C@H](CCN)NC1=O)[C@@H](C)O`, “dose-normalised fAUC(0-24) steady state” read 0.67 mg·h/L per mg (human, critically ill, AKI, plasma; intravenous, dose not given, mean).
The HDW of `CCc1ccc(CC/C=C/c2ccc3c(c2)C(=O)CC3)cc1` is reported as 25.6 g/L (Sprague-Dawley rat, male; oral, 450 mg/kg/day, 14 days).
For `O=C(Nc1ccccc1)C1CCN(C(=O)Oc2cccnc2)CC1`, “adverse event Asthenia” read 7.7% (healthy women; oral, 100 mg, 9 days).
`Cn1ncc(-c2nc(N[C@H]3CC[C@H](N)CC3)ncc2Cl)c1CC1CC1` has an AUC of 600 ng·h/mL (HPLC-MS/MS; human patients; oral, 3 mg, day 5).
For `C[C@@H](NC(=O)N1C(=O)[C@H](Cc2ccnc(N)c2)[C@H]1C(=O)O)C1CCCCC1`, “incidence of urine ketone body positive” read 12.5% (healthy adult Chinese volunteers; continuous intravenous infusion, 0.6 mg/kg/h, 5-day infusion, CTCAE 5.0 grading).
For `C[C@]1(CO)Cc2ncn(-c3ccc(C#N)c(Cl)c3)c2C(=O)O1`, the linearity index was 101% (human, plasma; 80 mg multiple doses; relative to: dose-proportional exposure).
For `CC[C@H](C)[C@H](NC(=O)[C@H](C)NC(=O)[C@H](CCCCN)NC(=O)[C@H](CC(C)C)NC(=O)[C@H](C)NC(=O)[C@@H](NC(=O)[C@H](Cc1c[nH]cn1)NC(=O)[C@H](CC(C)C)NC(=O)[C@@H](NC(=O)[C@@H](NC(=O)[C@H](CCCCN)NC(=O)[C@H](C)NC(=O)[C@H](C)NC(=O)[C@H](CO)NC(=O)[C@H](CCCCN)NC(=O)[C@H](Cc1ccccc1)NC(=O)[C@@H](NC(=O)[C@H](CCCCN)NC(=O)[C@H](CC(C)C)NC(=O)[C@H](Cc1ccccc1)NC(=O)[C@H](CO)NC(=O)[C@H](CCCCN)NC(=O)[C@H](Cc1c[nH]c2ccccc12)NC(=O)[C@H](CCCCN)NC(C)=O)[C@@H](C)O)[C@@H](C)O)C(C)C)[C@@H](C)O)C(=O)N[C@@H](CO)C(=O)N[C@@H](CO)C(N)=O`, the MIC90 was 8 µg/mL (≈ 2.73 µM) (Klebsiella pneumoniae; ATCC 700603 (ESBL)).
For `C[C@H]1CN(c2n[nH]c3nc(N[C@H]4CC[C@H](NS(=O)(=O)CCC(F)(F)F)CC4)ncc23)CCO1`, the remaining binding was 1.06 (Neurofilament medium polypeptide (Homo sapiens, UniProt P07197); Kinobeads competition, item: NEFM; 0.8 µM, unit not given; relative to: vehicle).
`COc1cc(Nc2ncc(F)c(Nc3ccc4c(n3)NC(=O)C(C)(C)O4)n2)cc(OC)c1OC` gave an IC50 of > 10 µM (SSTR2 (Homo sapiens, UniProt P30874)).
Under “serum enzyme activity”, `O=C(O)CCCOc1ccc(F)cc1-c1cc(-c2ccccc2C(F)(F)F)n(-c2ccccc2)n1` is recorded as 70.8 ± 5.5 U/L (item: AST; Crl:CD(SD) rats, female, serum; iv, 25 µg/kg, 14 days).
`Oc1c(Cl)cc2c(c1Cl)Oc1cc(Cl)c(Cl)cc1O2` — result for “dose fraction in skim milk”: 43% (whole cow milk; 20 nM nominal).
`CCc1cc(C(=O)NC)c2nccc(N3CCc4c(cc(Cn5ccnc5)cc4-c4cn(C)nc4C(F)(F)F)C3=O)c2c1`: “fraction of dose excreted” 0.4 ± 0.3% (Sprague Dawley rats, male, bile duct-cannulated, urine; oral, 50 mg/kg, 24 h).
